Measurements collected from several papers.
Numbered parts are unrelated; each lists some results of a single study.

Block 1
Target: Interferon regulatory factor 3, full length, phosphomimetic (IRF3, Homo sapiens, UniProt Q14653, residues 1-427, S386D/S396D/S398D/S402D/T404D/S405D)
Technique: protein-binding microarray
Form: double-stranded DNA, one strand shown
Matrix: in vitro
Concentration: 2540 nM top
Notes: 60-bp whole probe
With: salmon DNA 0.4 mg/ml
Baseline: random background probes
Direction: higher = stronger binding
Constant ends, left off below: GCCTAGCAC … GTCTTGATTCGCTTGACGCTGCTG
Construct (chain): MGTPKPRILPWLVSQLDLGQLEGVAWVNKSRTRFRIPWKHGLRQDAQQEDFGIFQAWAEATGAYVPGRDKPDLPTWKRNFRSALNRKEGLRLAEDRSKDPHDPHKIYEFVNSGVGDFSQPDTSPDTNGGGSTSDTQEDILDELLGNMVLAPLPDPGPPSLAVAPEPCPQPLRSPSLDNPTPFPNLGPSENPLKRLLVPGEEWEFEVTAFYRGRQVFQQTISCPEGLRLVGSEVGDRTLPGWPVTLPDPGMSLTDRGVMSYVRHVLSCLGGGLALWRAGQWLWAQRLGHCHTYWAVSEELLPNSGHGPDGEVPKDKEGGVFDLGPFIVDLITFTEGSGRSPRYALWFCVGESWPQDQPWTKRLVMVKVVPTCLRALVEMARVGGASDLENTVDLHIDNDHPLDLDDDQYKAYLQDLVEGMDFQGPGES
Oligonucleotide	fitted relative affinity
GAGTTTCCATTTTCTGAATGCGTGCTA	8.95 z-score
TTAGGTATCCTACTGCTTTCGTGCTAG	2.32 z-score
CTAGTTTTACTTTCTATGTCGTGCTAG	4.72 z-score
TTAGGTCTCGTACTGCTTTAGTGCTAG	-0.0976 z-score
TCATGAACCATTTTGGTACTGTGCTAG	1.19 z-score
TTAGGACTGGGGATCGGTTAGTGCTAG	-0.604 z-score
TCAGATTCCAGTTTCGATTAGTGCTAG	5.02 z-score
TTAGGACTGAGACTGGATTAGTGCTAG	-0.615 z-score
GACGATATAGGGTTTCGAGACGTGCTA	0.667 z-score
GACGGTTTCGGGTAGCGGGACGTGCTA	3.58 z-score
GACGGTTTCGCCTATCGGGACGTGCTA	2.93 z-score
TTACGTCTCGGTATCGGTTAGTGCTAG	2.59 z-score
TCATGTTTATGTCTGGGACTGTGCTAG	-0.207 z-score
GATGGTATCCTTATCCTGACGTGCTAG	5.4 z-score
TTAGTACTGGACACTGGGTTAGTGCTA	-0.521 z-score
TTAGATATCAAACTGGATTAGTGCTAG	-0.0335 z-score
TTAGGAATCGGGTATCGGTTAGTGCTA	0.749 z-score
TCAGTTTTCAGTCCTGGACTGTGCTAG	2.3 z-score
TTAGATATCGGTATCGATTAGTGCTAG	2.35 z-score

Block 2
Target: RNA binding protein fox-1 homolog 2, RRM domain, GST-SBP tag (RBFOX2, Homo sapiens, UniProt O43251-10, residues 100-194)
Technique: RNA Bind-n-Seq
Form: RNA
Matrix: in vitro
Concentration: 365 nM
Notes: natural RNA segment, single round, ends assumed
Baseline: no-protein control
Direction: higher = stronger binding
Constant ends, left off below: GGGAGUUCUACAGUCCGACGAUC … UGGAAUUCUCGGGUGCCAA
Construct (chain): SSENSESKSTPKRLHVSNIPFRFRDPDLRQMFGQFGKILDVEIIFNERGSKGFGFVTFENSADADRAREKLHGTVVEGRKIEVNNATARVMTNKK
Oligonucleotide	RBNS enrichment (R)
AGCAGUGUCCGGGGAGAGUGGCUUUAGACCAGUCAGUACCUUGCUCUUUGUGCAUGGUGCAUGUCAAGUCAGGAAGCCAAGAAACCGUUGGCAUUAAAAUCUAGAUGCAU	0.257
AAAAUGUACAUGAAGCUCCUUUCUGAUAUAGAAACCAUUUCUGGAGUAUUUACACUGGUUUGAUGUUUACAUUGCUCUAACUCGGUGCCUCAGAUACCUCUGUGACCAAA	0.605
GUUUUAAAAAACCGAGUUGGUUUUAUUGAAUUUAAAAAGAUAGGUAACUAAGUAGCAUUUAAAAUCAAGAUAGAGCAUUCCUUCUUGUAUCAGUGGGGCAGUGUUACCAU	0.4
AUGUUUUUAAAAUUACCUCUUCGAGCCUGAAUACAAAGAAUAAAAGAAUAAAAGAAUUCUUUUAAUUUCAGGGAAGAUCAGAAAAGAAAGCCUAAAGCCCUUUAGCGUUG	0.491
CAGUCCUAAAGGCUUCUGUGAAGGAAACCACAGAAAGUGAAAGAAGCAGAAUUAGAAAGAGCAUUCCCCACUUGCAGUGUCCUUCUCACAGGGAAGUCAGACGGUGGAAG	0.309
UGUGUUCUAUACAUUGUGAAUCUUCCCGUCUGAAGAACGCCCAGCCUGCCCAGACAAAGCCCCGCCUUCCCCAAAGCAGAGGGGCUGUCUGUGUCUCCAGAAAGGGGACA	0.185
GCAGCAGACGGGCUCUCGGGAGUCGUGGGUUCCAGGCAGCUGUGUGGACCCAGGGACAGACAUUCAAAGGGACGCCAGCCAUCCUUAGUGACAGGGGCCCCAACUUAGCA	1.38
GCAUUUCUCUGCAGGAUACCAGUUCAGGCCCCACCAUUCCUGCCAAGGCCAUUACAUCCCACAAACCCAAAUACAAAGCAGCUGACUUCCCUGGAUCUUCCCCCCACUCC	1.7

Block 3
Target: Histone acetyltransferase KAT6A, both winged helices, GST fusion (KAT6A, Homo sapiens, UniProt Q92794, residues 1-181)
Technique: protein binding microarray
Form: double-stranded DNA, one strand shown
Matrix: in vitro
Concentration: not given
Notes: 8-mer, flanks averaged, mean of 2 arrays, mostly near background
Baseline: not given
Direction: higher = stronger binding
Construct (chain): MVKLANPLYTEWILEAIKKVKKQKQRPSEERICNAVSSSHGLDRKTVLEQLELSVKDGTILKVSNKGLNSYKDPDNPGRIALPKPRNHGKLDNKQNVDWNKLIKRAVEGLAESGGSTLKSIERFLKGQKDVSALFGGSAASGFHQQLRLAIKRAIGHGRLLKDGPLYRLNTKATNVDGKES
Oligonucleotide	E-score
ACAGAATG	-0.08
AGCATTAC	-0.186
ACCCATTA	-0.222
ATCGTGCA	-0.0103
AGCCAGGG	-0.168
AAACAAAC	-0.141
CCCGGGAG	0.231
CTTTACCA	-0.0924
AGCAACCC	-0.015
CGCGGTGC	0.359
ATGATCTG	-0.0576
CGACCAAC	0.0519
TCGGCGAA	0.239
GAGACCAC	-0.18
ATGCATGA	-0.104
CCTAGTGA	-0.133
CAAAGCCC	-0.0744
ATGCGGGC	0.107
GGAGGACC	0.0145
ACACCGGG	0.212
CATTCTTA	-0.101
AAAGTCAT	-0.194

Block 4
Target: Centromere-binding protein 1, full length, His-tagged (CBF1, Saccharomyces cerevisiae, UniProt P17106, residues 1-351)
Sequence of UniProt P17106 (whole entry, looked up): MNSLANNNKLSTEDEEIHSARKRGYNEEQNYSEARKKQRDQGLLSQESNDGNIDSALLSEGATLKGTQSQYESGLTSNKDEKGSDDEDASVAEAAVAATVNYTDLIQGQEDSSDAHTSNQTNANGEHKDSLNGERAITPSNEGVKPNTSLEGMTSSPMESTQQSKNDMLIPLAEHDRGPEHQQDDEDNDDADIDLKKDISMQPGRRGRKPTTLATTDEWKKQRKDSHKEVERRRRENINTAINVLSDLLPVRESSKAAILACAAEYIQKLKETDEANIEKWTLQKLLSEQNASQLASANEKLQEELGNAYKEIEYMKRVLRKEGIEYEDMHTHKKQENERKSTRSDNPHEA
Technique: competition protein-binding microarray
Form: double-stranded DNA, one strand shown
Matrix: in vitro
Concentration: 2 µM
Notes: whole 60-bp probe, lowest competitor level
With: Pho4 competitor, 0.05 µM
Direction: higher = stronger binding
Constant ends, left off below: … GTCTTGATTCGCTTGACGCTGCTG
Oligonucleotide	fluorescence intensity [a.u.]
AAAGCGGTAATTTTTCACGTGTGGTCAAATATCTAT	1050
AAAGCGGTAATTTGGATTGTGGGTGCAGATATCTAT	83.3
ACCTTGAGCTCGAAAAATGTGACGGATACTTTTTCC	87.9
TGACGGCGAAGCTCGCACGTGCGCAGCCCGGGGGCG	997
CGTCCTAGTGATTGGAGCGTGGGTGCCATGAGGAAG	98.8
CTTTCCCGATCTTGACCCGTGGGTGTAGCACATTTG	75.5
AACAGTGATATTCGTCACGTGACTCGGATAAAACTC	37800
GTCTTGTCTCATTGCGGGGTGGGTGTCCCCACTTCA	75
GATTGATATATCGGCCACGTTTGAGGACCAAGTTGC	83.8
TTGGCGCACTTACAGGACCTGACGACTTTGCCCCCG	60.3
CGGGGTTAAGTTTGGTTAGTGGGTGGCTTGCAGCAG	69.7
CTTTTGGATTCCCATCACGTCATGAAAGATTCTTCT	92.8
CATACCCAACCTTGGGTTGTGGGTGAAGATATTTGT	65.9
AAAGCGGTAATTTGGAGCGTGGGTGCAGATATCTAT	69.5
AGGATAATGTATTGTCATGCTGACGTATCCCATTCT	114
CTTTCCCGATCTTGTATAGTGGGTGTAGCACATTTG	77.7
ACAAACAACTCACTCAACGTGTCCAAAACTTCGTAG	99.3
CACATAAGGATAATTCACCTGCCAAGACGGCACAGG	68.6
TCATTTTAGGCAGGGCCGGTACAGACCGCACCAATC	53.3

Repeated from above (block 2):
Oligonucleotide	RBNS enrichment (R)
CAGUCCUAAAGGCUUCUGUGAAGGAAACCACAGAAAGUGAAAGAAGCAGAAUUAGAAAGAGCAUUCCCCACUUGCAGUGUCCUUCUCACAGGGAAGUCAGACGGUGGAAG	0.309
AUGUUUUUAAAAUUACCUCUUCGAGCCUGAAUACAAAGAAUAAAAGAAUAAAAGAAUUCUUUUAAUUUCAGGGAAGAUCAGAAAAGAAAGCCUAAAGCCCUUUAGCGUUG	0.491
GCAUUUCUCUGCAGGAUACCAGUUCAGGCCCCACCAUUCCUGCCAAGGCCAUUACAUCCCACAAACCCAAAUACAAAGCAGCUGACUUCCCUGGAUCUUCCCCCCACUCC	1.7
AAAAUGUACAUGAAGCUCCUUUCUGAUAUAGAAACCAUUUCUGGAGUAUUUACACUGGUUUGAUGUUUACAUUGCUCUAACUCGGUGCCUCAGAUACCUCUGUGACCAAA	0.605
AGCAGUGUCCGGGGAGAGUGGCUUUAGACCAGUCAGUACCUUGCUCUUUGUGCAUGGUGCAUGUCAAGUCAGGAAGCCAAGAAACCGUUGGCAUUAAAAUCUAGAUGCAU	0.257
UGUGUUCUAUACAUUGUGAAUCUUCCCGUCUGAAGAACGCCCAGCCUGCCCAGACAAAGCCCCGCCUUCCCCAAAGCAGAGGGGCUGUCUGUGUCUCCAGAAAGGGGACA	0.185
GCAGCAGACGGGCUCUCGGGAGUCGUGGGUUCCAGGCAGCUGUGUGGACCCAGGGACAGACAUUCAAAGGGACGCCAGCCAUCCUUAGUGACAGGGGCCCCAACUUAGCA	1.38
GUUUUAAAAAACCGAGUUGGUUUUAUUGAAUUUAAAAAGAUAGGUAACUAAGUAGCAUUUAAAAUCAAGAUAGAGCAUUCCUUCUUGUAUCAGUGGGGCAGUGUUACCAU	0.4
